Published values gathered from unrelated publications.
Compare with care: the assays were run in different laboratories.

SMILES	target or system	test	system	setting	how to read	quantity	result
Nc1ncc(-c2cc(-c3cnn(CC(F)(F)F)c3)ncc2F)nc1C(=O)NC1CNCC(F)C1 (centres unmarked)	CLK2	KINOMEscan	–	1 µM	relative to: DMSO control	remaining binding	100%
CCN(CC)CC(=O)Nc1cccc(-n2cc(-c3ccc4ccc(-c5cn(-c6cccc(NC(=O)CN(CC)CC)c6)nn5)cc4c3)nn2)c1	RCC4	PCR angiogenesis array, measured: HPSE	–	5 x IC50, 2 h, normoxia	relative to: untreated	fold regulation	-1.02
CN1CCCNC(=O)c2cccc(c2)C(=O)NCCCN(C)CCCNc2cccc3c2C(=O)c2cccc(c2C3=O)NCCC1	SAS	RNA-Seq, measured: DCAF10 mRNA	–	1 µM, 6 h	relative to: untreated cells	log2 fold change	0.718
Cc1ncsc1-c1ccc(C(C)NC(=O)C2CC(O)CN2C(=O)C(NC(=O)CCCCCCCCCCN2CCCC(Nc3ncc(Cl)c(Nc4ccccc4S(=O)(=O)C(C)C)n3)C2)C(C)(C)C)cc1 (centres unmarked)	22Rv1	RNA-seq, measured: TEF mRNA	–	concentration not given	relative to: DMSO	log2 fold change	-2.18
C=CC(=O)Nc1cccc(Cn2ncc3cnc(Nc4cnn(CCOC)c4)nc32)c1	MUSK human	binding, KINOMEscan	–	100 nM	lower = stronger binding	percent of control	94%
CNS(=O)(=O)Nc1nccc(Cc2c(C)c3ccc(Oc4ncccc4F)cc3oc2=O)c1F	KYSE-410	cell viability	–	7 days	–	IC50	0.0202 µM
COC1CN([C@H]2CC[C@H]([C@@]3(C)Oc4c(Cl)cc(C(=O)NCc5c(SC)cc(C)[nH]c5=O)c(C)c4O3)CC2)C1	–	RNA-seq, measured: mouse JUP homolog	mouse, HT-1376 xenograft, whole blood	dose not given, PRC2 target gene	relative to: vehicle	log2 fold change	0.612
Cn1ncc2cc(-c3cncc(Cl)c3N3CCC4(CCNC4=O)CC3)ccc21	LS174T	microarray, measured: PAH	–	concentration not given, 4 h	relative to: untreated cells	fold change in expression	1.3

For quick reference, copied from above:
SMILES	target or system	test	system	setting	how to read	quantity	result
Cn1ncc2cc(-c3cncc(Cl)c3N3CCC4(CCNC4=O)CC3)ccc21	LS174T	microarray, measured: PAH	–	concentration not given, 4 h	relative to: untreated cells	fold change in expression	1.3
